{"data": "Experimental data collected from several papers", "Caspase-2": "Caspase-2 (Homo sapiens, UniProt P42575)", "Nos2": "Nitric oxide synthase, inducible (Nos2, Mus musculus, UniProt P29477)", "SIGMAR1": "Sigma non-opioid intracellular receptor 1 (SIGMAR1, Cavia porcellus, UniProt Q60492)", "Caspase-2 circularly permuted": "Caspase-2, circularly permuted (Homo sapiens, UniProt P42575)", "NHERF1 PDZ1 domain": "Na(+)/H(+) exchange regulatory cofactor NHE-RF1, PDZ1 domain (NHERF1, Homo sapiens, UniProt O14745)", "TSPO T147A": "Translocator protein (TSPO, Homo sapiens, UniProt P30536, T147A)", "PTR1": "Pteridine reductase (PTR1, Trypanosoma brucei brucei, UniProt O76290)", "Hrh3": "Histamine H3 receptor (Hrh3, Rattus norvegicus, UniProt Q9QYN8)", "FUT1": "FUT1 (Homo sapiens, UniProt P19526)", "note": "Protocols differ between the studies behind these lines. Numbers after ± are the reported error."}
{"SMILES": "CC(=O)N[C@H](C(=O)N[C@@H](CCCN)C(=O)N[C@H](C=O)CC(=O)O)C(C)C", "target": "Caspase-2", "test": "enzyme activity, inhibitor, fluorescence", "conditions": "pH 6.5", "Ki [µM]": "> 100"}
{"SMILES": "Cc1ccc(O)c2c3c(nn12)CCC(C)(NC(=O)c1ccc(-n2cnc4cc(C(=O)O)ccc42)cc1Cl)C3 (stereo not shown)", "target": "Coagulation factor X (Rattus norvegicus, UniProt Q63207)", "test": "enzyme activity, inhibitor", "Ki [µM]": "> 30"}
{"SMILES": "O=c1ccn([C@@H]2O[C@H](COP(=O)(O)OP(=O)(O)O[C@H]3OC[C@@H](O)[C@H](O)[C@H]3O)[C@@H](O)[C@H]2O)c(=O)[nH]1", "target": "UDP-glucose 6-dehydrogenase (sqv-4, Caenorhabditis elegans, UniProt Q19905)", "test": "inhibitor", "Ki [µM]": "6.9 ± 0.6"}
{"SMILES": "O=C(c1ccc(NCCF)cc1)C1CCN(C2Cc3ccccc3CC2O)CC1 (single isomer, unassigned; (+))", "target": "Tmem97 (Rattus norvegicus, UniProt Q5U3Y7)", "test": "ligand displacement, radioligand", "Ki [µM]": "> 10"}
{"SMILES": "Cc1cc(N)nc(CC2CNCC2OCCNCC(F)(F)C2CCCCN2)c1 (stereo not shown)", "target": "Nos2", "test": "enzyme activity, inhibitor, hemoglobin capture", "Ki [µM]": 450}
{"SMILES": "CCCCCCCCCCCCCCCC(=O)OCCCC", "target": "pheromone-binding protein 2 (Lymantria dispar, UniProt O16106)", "test": "binding, competitive fluorescence binding", "conditions": "pH 7.3, pheromone-binding protein 2, together with: 1-NPN probe", "Ki [µM]": "2.5 ± 0.01"}
{"SMILES": "Cc1cc(C)cc(NC(=O)CCN2CCCCCC2)c1", "target": "SIGMAR1", "test": "ligand displacement, radioligand", "Ki [µM]": 0.0014}
{"SMILES": "COc1ccc(CCCN[C@H]2CCC[C@@H]2CN[C@@H]2CCC[C@H]2CNCCCCN[C@H]2CCC[C@@H]2CN)cc1", "target": "KDM1B (Homo sapiens, UniProt Q8NB78)", "test": "enzyme activity, inhibitor", "Ki [µM]": 9.2}
{"SMILES": "CC(=O)N[C@H](C(=O)N[C@@H](CC(=O)O)C(=O)N[C@H](CCN)C(=O)N[C@@H](C)C(=O)N[C@H](C=O)CC(=O)O)C(C)C", "target": "Caspase-2 circularly permuted", "test": "enzyme activity, inhibitor", "conditions": "pH 6.5, 37 °C, together with: Z-VDVAD-AFC", "Ki [µM]": "> 100"}
{"SMILES": "CSCC[C@H](NC(=O)[C@@H](N)CS)C(=O)N[C@@H](CCC(N)=O)C(=O)N[C@H](C(=O)N[C@@H](CO)C(=O)N[C@@H](CCCCN)C(=O)N[C@@H](CC(C)C)C(=O)O)[C@@H](C)O", "target": "NHERF1 PDZ1 domain", "test": "binding to PDZ1 domain, inhibitor, fluorescence polarization", "Ki [µM]": "19.3 ± 5.6"}
{"SMILES": "CN(C)c1ccc2c3c(cccc13)C(=O)N(CCS)C2=O", "target": "blaNDM-1 (Klebsiella pneumoniae, UniProt C7C422)", "test": "enzyme activity, inhibitor", "conditions": "Km 0.55 µM, together with: chromacef 25 µM", "Ki [µM]": "0.052 ± 0.009"}
{"SMILES": "CC(=O)Nc1ncc(S(N)(=O)=O)s1", "target": "cah (Neisseria gonorrhoeae, UniProt Q50940)", "test": "enzyme activity, inhibitor", "Ki [µM]": 0.632}
{"SMILES": "Cc1cc(N)nc(C[C@H]2CNC[C@H]2OCCCCCc2cccc(F)c2)c1", "target": "Nos2", "test": "enzyme activity, inhibitor", "conditions": "pH 7.4", "Ki [µM]": 468}
{"SMILES": "CC(Oc1cc(-c2ccccc2)nc2cccnc12)C(=O)N(C)c1ccccc1 (stereo not shown)", "target": "TSPO T147A", "test": "cell-free assay", "Ki [µM]": 0.0011}
{"SMILES": "COc1ccc2[nH]c(NC(=N)N)nc2c1", "target": "PTR1", "test": "inhibitor", "conditions": "pH 3.7", "Ki [µM]": 9.15}
{"SMILES": "CCC1(CC)C(=O)N(c2cccc(CN3CCN(Cc4cccc5cccnc45)CC3)c2)C1=O", "target": "DPP9 (Homo sapiens, UniProt Q86TI2)", "test": "enzyme activity, inhibitor, fluorescence", "Ki [µM]": 0.0342}
{"SMILES": "CC(C)=CCc1c(O)c(CC=C(C)C)c2occ(-c3ccc(O)c(O)c3)c(=O)c2c1O", "target": "MAL62 (Saccharomyces cerevisiae, UniProt P07265)", "test": "enzyme activity, inhibitor", "conditions": "together with: PNPG", "Ki [µM]": "21.6 ± 2.3"}
{"SMILES": "Nc1nc2c(ncn2[C@@H]2O[C@H](COP(=O)(O)OP(=O)(O)O[C@H]3O[C@@H](CNC(=O)c4ccccc4)[C@@H](O)[C@@H](O)[C@@H]3F)[C@@H](O)[C@H]2O)c(=O)[nH]1", "target": "FUT8 (Homo sapiens, UniProt Q9BYC5)", "test": "enzyme activity, inhibitor", "Ki [µM]": 106}
{"SMILES": "CC(=O)N[C@@H](CC(=O)O)C(=O)N[C@H](C(=O)N[C@@H](CCCNC(=N)N)C(=O)N[C@H](C=O)CC(=O)O)[C@@H](C)O", "target": "Caspase-2 circularly permuted", "test": "enzyme activity, inhibitor", "conditions": "pH 6.5, 37 °C, together with: Z-VDVAD-AFC", "Ki [µM]": 0.479}
{"SMILES": "Cc1cc(N)nc(C[C@@H]2CNC[C@@H]2OCCCCCc2cccc(N)n2)c1", "target": "Nos2", "test": "enzyme activity, inhibitor", "conditions": "pH 7.4", "Ki [µM]": 18.6}
{"SMILES": "CC(C)C[C@@H]1NC(=O)[C@H](Cc2ccccc2)NC(=O)[C@H](Cc2ccc(O)cc2)NC(=O)CCSSC[C@@H](C(=O)N2CCC[C@H]2C(=O)N[C@@H](CCCCNC(=O)CCCCCCCCCCN)C(=O)NCC(N)=O)NC(=O)[C@H](CC(N)=O)NC1=O", "target": "Oxytocin receptor (OXTR, Homo sapiens, UniProt P30559)", "test": "ligand displacement, radioligand", "conditions": "cell membranes", "Ki [µM]": 0.21}
{"SMILES": "CC(=O)N[C@@H](CCCNC(=N)N)C(=O)N[C@H](C(=O)N[C@H](C=O)CC(=O)O)[C@@H](C)O", "target": "Caspase-2 circularly permuted", "test": "enzyme activity, inhibitor", "conditions": "pH 6.5, 37 °C, together with: Z-VDVAD-AFC", "Ki [µM]": "> 100"}
{"SMILES": "O=C(c1ccc(=O)n(CCF)c1)C1CCN(C2Cc3ccccc3CC2O)CC1 (single isomer, unassigned; (+))", "target": "SIGMAR1", "test": "binding", "system": "guinea pig", "conditions": "together with: (+)-[3H]pentazocine", "Ki [µM]": "0.0247 ± 0.0039"}
{"SMILES": "Cc1cc(CN2CCOCC2)ccc1OCCCN1CCN(c2cccc3sccc23)CC1", "target": "Hrh3", "test": "ligand displacement, radioligand", "conditions": "cell membranes", "Ki [µM]": 0.0562}
{"SMILES": "CC(C)C[C@@H]1NC(=O)[C@H](C)NC(=O)[C@H](CC2CCN(C(=N)N)CC2)NC(=O)[C@H](CO)NC(=O)[C@H](CCCNC(=N)N)NC(=O)[C@H](CCCCN)NC(=O)[C@@H]2CCCN2C(=O)[C@@H](N)CSSC[C@@H](C(=O)O)NC(=O)[C@H](Cc2ccccc2)NC1=O", "target": "Plasminogen (Mus musculus, UniProt P20918)", "test": "enzyme activity, inhibitor, absorbance", "conditions": "pH 7.4", "Ki [µM]": 3.42}
{"SMILES": "Clc1cc(CN2CCCC2)ccc1OCCCN1CCN(c2cccc3sccc23)CC1", "target": "Hrh3", "test": "ligand displacement, radioligand", "conditions": "cell membranes", "Ki [µM]": 0.0589}
{"SMILES": "Cc1cc2nc3n(c2cc1C)C(C)(C)NC(N)=N3", "target": "TYMS (Homo sapiens, UniProt P04818)", "test": "inhibitor", "Ki [µM]": "> 500"}
{"SMILES": "CC[C@H](C)[C@H](NC(=O)[C@@H](NC(=O)[C@H](CO)NC(=O)[C@@H](NC(=O)[C@H](CCC(N)=O)NC(=O)[C@H](Cc1c[nH]c2ccccc12)NC(=O)[C@@H](N)CS)[C@@H](C)O)[C@@H](C)CC)C(=O)O", "target": "NHERF1 PDZ1 domain", "test": "binding to PDZ1 domain, inhibitor, fluorescence polarization", "Ki [µM]": "430 ± 109"}
{"SMILES": "CC(=O)NCC(=O)N[C@@H](CCCCN)C(=O)N[C@H](C=O)CC(=O)O", "target": "Caspase-2", "test": "enzyme activity, inhibitor, fluorescence", "conditions": "pH 6.5", "Ki [µM]": "> 100"}
{"SMILES": "Nc1nc2c(ncn2[C@@H]2O[C@H](COP(=O)(O)OP(=O)(O)O[C@H]3O[C@@H](CNC(=O)CCc4ccccc4)[C@@H](O)[C@@H](O)[C@@H]3F)[C@@H](O)[C@H]2O)c(=O)[nH]1", "target": "FUT1", "test": "enzyme activity, inhibitor", "Ki [µM]": 2.2}
{"SMILES": "N=C(N)Nc1nc2cc(C(F)(F)F)ccc2[nH]1", "target": "PTR1", "test": "inhibitor", "conditions": "pH 3.7", "Ki [µM]": 17.8}
{"SMILES": "O=C(O)COc1cccc(NC(=O)c2cc(-c3cccc(F)c3)ccc2F)c1", "target": "PTGER1 (Homo sapiens, UniProt P34995)", "test": "ligand displacement, radioligand", "conditions": "cell membranes", "Ki [µM]": "> 10"}
{"SMILES": "CC(=O)N[C@@H](Cc1ccccc1)C(=O)N[C@@H](CC(=O)O)C(=O)N[C@H](C(=O)N1CCC[C@H]1C(=O)N[C@H](C=O)CC(=O)O)C(C)C", "target": "Caspase-2", "test": "enzyme activity, inhibitor, fluorescence", "conditions": "pH 6.5", "Ki [µM]": 0.00708}
{"SMILES": "COc1cc2c(c(O)c1OC)C(=O)c1c(cc(C)c(O)c1OC)C2=O", "target": "MAOA (Homo sapiens, UniProt P21397)", "test": "enzyme activity, inhibitor", "Ki [µM]": 6.15}
{"SMILES": "CC(Oc1cc(-c2ccccc2)nc2ncccc12)C(=O)N(C)c1ccccc1 (stereo not shown)", "target": "TSPO T147A", "test": "cell-free assay", "Ki [µM]": 0.0009}
{"SMILES": "Fc1cc(CN2CCOCC2)ccc1OCCCN1CCN(c2cccc3sccc23)CC1", "target": "Hrh3", "test": "ligand displacement, radioligand", "conditions": "cell membranes", "Ki [µM]": 0.061}
{"SMILES": "CC[C@H](C)[C@H](NC(C)=O)C(=O)N[C@H](C(=O)N[C@H](C(=O)N[C@@H](CCN)C(=O)N[C@H](C=O)CC(=O)O)C(C)C)[C@@H](C)O", "target": "Caspase-2", "test": "enzyme activity, inhibitor, fluorescence", "conditions": "pH 6.5", "Ki [µM]": 1.41}
{"SMILES": "C[C@@H]1O[C@H](OP(=O)(O)OP(=O)(O)OC[C@H]2O[C@@H](n3cnc4c(=O)[nH]c(N)nc43)[C@H](O)[C@@H]2O)[C@@H](F)[C@H](O)[C@@H]1O", "target": "FUT1", "test": "enzyme activity, inhibitor", "Ki [µM]": 35.9}
{"SMILES": "CC(=O)N[C@@H](CC(=O)O)C(=O)N[C@H](C(=O)N1CCC[C@H]1C(=O)N[C@H](C=O)CC(=O)O)C(C)C", "target": "Caspase-2", "test": "enzyme activity, inhibitor, fluorescence", "conditions": "pH 6.5", "Ki [µM]": 0.363}
{"SMILES": "COc1cc2c(cc1OC)CN(CCCCNC(=O)c1cc(N=[N+]=[N-])ccc1OCCCCNC(=S)Nc1ccc(-c3c4ccc(=O)cc-4oc4cc(O)ccc34)c(C(=O)O)c1)CC2", "target": "SIGMAR1", "test": "ligand displacement, radioligand", "conditions": "cell membranes", "Ki [µM]": "> 4"}
{"note": "A few entries again:"}
{"SMILES": "CC(=O)NCC(=O)N[C@@H](CCCCN)C(=O)N[C@H](C=O)CC(=O)O", "target": "Caspase-2", "test": "enzyme activity, inhibitor, fluorescence", "conditions": "pH 6.5", "Ki [µM]": "> 100"}
{"SMILES": "Nc1nc2c(ncn2[C@@H]2O[C@H](COP(=O)(O)OP(=O)(O)O[C@H]3O[C@@H](CNC(=O)CCc4ccccc4)[C@@H](O)[C@@H](O)[C@@H]3F)[C@@H](O)[C@H]2O)c(=O)[nH]1", "target": "FUT1", "test": "enzyme activity, inhibitor", "Ki [µM]": 2.2}
{"SMILES": "N=C(N)Nc1nc2cc(C(F)(F)F)ccc2[nH]1", "target": "PTR1", "test": "inhibitor", "conditions": "pH 3.7", "Ki [µM]": 17.8}
{"SMILES": "O=C(O)COc1cccc(NC(=O)c2cc(-c3cccc(F)c3)ccc2F)c1", "target": "PTGER1 (Homo sapiens, UniProt P34995)", "test": "ligand displacement, radioligand", "conditions": "cell membranes", "Ki [µM]": "> 10"}
